Assay results pooled from the literature.
Compare with care: the assays were run in different laboratories. ± gives the spread as reported.
DCN1-like protein 1 PONY domain: DCN1-like protein 1, PONY domain (Homo sapiens, UniProt Q96GG9)
F11: Coagulation factor XI (F11, Homo sapiens, UniProt P03951)
UniProt P03951, sequence (whole entry, looked up): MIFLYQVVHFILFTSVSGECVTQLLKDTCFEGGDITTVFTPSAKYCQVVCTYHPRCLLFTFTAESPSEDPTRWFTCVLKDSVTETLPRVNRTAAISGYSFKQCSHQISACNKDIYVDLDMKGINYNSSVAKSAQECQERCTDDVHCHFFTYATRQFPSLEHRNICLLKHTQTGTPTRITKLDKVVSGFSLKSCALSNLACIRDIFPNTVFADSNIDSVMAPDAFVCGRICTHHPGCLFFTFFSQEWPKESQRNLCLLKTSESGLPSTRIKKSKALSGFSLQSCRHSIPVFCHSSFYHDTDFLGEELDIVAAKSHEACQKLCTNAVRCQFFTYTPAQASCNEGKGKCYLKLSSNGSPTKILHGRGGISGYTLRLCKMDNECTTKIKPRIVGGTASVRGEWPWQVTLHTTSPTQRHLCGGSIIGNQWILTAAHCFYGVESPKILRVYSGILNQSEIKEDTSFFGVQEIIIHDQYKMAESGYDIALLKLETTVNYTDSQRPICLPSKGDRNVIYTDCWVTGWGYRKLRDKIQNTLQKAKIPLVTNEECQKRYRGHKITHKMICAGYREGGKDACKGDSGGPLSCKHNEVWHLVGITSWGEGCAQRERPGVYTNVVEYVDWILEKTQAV
TGFBR1: TGF-beta receptor type-1 (TGFBR1, Homo sapiens, UniProt P36897)
UniProt P36897, sequence (whole entry, looked up): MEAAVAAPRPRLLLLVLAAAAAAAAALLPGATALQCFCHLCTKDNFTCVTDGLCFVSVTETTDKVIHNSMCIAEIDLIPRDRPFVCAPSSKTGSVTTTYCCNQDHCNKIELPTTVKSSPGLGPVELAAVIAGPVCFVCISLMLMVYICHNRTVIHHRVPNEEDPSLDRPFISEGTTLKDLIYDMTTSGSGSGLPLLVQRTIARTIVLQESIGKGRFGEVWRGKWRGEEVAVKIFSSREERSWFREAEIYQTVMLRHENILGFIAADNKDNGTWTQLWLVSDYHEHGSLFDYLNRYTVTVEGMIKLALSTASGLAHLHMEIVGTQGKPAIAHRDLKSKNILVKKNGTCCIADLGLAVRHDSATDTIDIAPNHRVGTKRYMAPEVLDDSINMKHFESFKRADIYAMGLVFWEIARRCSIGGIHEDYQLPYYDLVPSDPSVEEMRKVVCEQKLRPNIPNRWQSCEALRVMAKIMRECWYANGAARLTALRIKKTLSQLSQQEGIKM
TYMS: Thymidylate synthase (TYMS, Homo sapiens, UniProt P04818)
UniProt P04818, sequence (whole entry, looked up): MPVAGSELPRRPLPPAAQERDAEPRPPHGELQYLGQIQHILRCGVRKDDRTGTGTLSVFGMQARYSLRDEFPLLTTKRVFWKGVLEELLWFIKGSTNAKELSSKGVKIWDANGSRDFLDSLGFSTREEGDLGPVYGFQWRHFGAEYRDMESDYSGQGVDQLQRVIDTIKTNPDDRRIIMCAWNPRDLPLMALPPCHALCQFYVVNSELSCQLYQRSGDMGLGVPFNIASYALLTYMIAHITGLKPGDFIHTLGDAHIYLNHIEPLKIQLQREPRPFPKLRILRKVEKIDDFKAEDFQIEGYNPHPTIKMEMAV
PARP1: Poly [ADP-ribose] polymerase 1 (PARP1, Homo sapiens, UniProt P09874)
UniProt P09874, sequence (whole entry, looked up): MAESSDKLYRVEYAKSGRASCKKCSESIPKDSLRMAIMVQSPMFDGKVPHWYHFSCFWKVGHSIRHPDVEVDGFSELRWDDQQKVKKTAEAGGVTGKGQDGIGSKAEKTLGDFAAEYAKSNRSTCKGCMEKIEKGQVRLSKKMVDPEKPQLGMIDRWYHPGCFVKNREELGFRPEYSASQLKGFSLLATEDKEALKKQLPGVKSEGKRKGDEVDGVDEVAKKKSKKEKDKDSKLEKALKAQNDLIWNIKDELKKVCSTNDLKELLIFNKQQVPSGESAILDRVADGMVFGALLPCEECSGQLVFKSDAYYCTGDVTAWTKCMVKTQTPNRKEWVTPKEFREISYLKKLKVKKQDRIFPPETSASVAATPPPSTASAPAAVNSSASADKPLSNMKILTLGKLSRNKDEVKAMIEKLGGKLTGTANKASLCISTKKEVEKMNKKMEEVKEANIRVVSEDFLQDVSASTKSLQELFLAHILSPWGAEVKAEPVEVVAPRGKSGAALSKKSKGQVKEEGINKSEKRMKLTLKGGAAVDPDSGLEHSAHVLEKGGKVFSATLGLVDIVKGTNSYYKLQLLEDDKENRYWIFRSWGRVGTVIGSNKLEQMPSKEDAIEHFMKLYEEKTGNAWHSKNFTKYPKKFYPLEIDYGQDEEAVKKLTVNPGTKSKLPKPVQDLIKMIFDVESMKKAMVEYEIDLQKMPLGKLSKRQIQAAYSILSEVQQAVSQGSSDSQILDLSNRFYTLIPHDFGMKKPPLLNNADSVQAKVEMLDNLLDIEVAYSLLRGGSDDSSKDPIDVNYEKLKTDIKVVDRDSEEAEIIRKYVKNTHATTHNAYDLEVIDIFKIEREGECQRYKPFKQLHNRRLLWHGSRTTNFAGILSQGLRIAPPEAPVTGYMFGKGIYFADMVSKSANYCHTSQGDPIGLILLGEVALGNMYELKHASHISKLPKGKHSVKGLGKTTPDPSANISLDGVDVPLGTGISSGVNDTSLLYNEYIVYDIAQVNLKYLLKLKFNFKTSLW
Protein lin-28 homolog A: Protein lin-28 homolog A (Mus musculus, UniProt Q8K3Y3)
UniProt Q8K3Y3, sequence (whole entry, looked up): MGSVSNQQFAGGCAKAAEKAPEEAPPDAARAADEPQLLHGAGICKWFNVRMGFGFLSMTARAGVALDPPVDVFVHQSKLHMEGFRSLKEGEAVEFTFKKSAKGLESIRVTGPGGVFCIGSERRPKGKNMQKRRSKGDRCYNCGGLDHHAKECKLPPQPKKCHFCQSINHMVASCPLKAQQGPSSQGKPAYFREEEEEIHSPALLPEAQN
UniProt P21728, sequence (whole entry, looked up): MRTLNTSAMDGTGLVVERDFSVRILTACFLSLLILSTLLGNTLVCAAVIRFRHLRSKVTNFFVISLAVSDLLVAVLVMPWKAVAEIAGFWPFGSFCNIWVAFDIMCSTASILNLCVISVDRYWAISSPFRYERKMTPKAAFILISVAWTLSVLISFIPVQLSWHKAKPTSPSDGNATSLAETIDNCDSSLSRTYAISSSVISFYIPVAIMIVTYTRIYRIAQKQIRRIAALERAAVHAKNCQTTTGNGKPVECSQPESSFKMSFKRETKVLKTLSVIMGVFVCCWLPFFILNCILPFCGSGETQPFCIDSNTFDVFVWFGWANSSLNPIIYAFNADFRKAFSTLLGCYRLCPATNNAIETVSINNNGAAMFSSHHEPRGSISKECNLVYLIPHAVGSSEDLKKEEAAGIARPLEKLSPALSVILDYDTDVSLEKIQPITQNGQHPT
UniProt P06396, sequence (whole entry, looked up): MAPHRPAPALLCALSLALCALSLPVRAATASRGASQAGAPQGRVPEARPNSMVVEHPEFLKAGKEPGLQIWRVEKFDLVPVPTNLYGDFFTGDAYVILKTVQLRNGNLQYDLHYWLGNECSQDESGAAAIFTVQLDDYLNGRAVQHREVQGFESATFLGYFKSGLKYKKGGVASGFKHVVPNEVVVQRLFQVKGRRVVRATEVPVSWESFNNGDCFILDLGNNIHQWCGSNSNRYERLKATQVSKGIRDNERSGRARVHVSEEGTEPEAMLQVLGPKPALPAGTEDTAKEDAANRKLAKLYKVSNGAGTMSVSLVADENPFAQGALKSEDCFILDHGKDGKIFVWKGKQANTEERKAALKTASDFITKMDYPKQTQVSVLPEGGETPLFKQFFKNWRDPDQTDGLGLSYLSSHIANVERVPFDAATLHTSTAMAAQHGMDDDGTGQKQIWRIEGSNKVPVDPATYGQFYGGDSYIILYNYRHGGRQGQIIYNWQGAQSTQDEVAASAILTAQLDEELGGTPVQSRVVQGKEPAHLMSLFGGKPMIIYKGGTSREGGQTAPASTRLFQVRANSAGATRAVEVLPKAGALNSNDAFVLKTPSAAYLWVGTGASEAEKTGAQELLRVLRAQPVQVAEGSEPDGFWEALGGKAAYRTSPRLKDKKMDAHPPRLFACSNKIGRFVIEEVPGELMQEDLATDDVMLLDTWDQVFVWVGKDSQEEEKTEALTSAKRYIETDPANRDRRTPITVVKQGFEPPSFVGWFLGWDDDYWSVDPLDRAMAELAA
UniProt O60674, sequence (whole entry, looked up): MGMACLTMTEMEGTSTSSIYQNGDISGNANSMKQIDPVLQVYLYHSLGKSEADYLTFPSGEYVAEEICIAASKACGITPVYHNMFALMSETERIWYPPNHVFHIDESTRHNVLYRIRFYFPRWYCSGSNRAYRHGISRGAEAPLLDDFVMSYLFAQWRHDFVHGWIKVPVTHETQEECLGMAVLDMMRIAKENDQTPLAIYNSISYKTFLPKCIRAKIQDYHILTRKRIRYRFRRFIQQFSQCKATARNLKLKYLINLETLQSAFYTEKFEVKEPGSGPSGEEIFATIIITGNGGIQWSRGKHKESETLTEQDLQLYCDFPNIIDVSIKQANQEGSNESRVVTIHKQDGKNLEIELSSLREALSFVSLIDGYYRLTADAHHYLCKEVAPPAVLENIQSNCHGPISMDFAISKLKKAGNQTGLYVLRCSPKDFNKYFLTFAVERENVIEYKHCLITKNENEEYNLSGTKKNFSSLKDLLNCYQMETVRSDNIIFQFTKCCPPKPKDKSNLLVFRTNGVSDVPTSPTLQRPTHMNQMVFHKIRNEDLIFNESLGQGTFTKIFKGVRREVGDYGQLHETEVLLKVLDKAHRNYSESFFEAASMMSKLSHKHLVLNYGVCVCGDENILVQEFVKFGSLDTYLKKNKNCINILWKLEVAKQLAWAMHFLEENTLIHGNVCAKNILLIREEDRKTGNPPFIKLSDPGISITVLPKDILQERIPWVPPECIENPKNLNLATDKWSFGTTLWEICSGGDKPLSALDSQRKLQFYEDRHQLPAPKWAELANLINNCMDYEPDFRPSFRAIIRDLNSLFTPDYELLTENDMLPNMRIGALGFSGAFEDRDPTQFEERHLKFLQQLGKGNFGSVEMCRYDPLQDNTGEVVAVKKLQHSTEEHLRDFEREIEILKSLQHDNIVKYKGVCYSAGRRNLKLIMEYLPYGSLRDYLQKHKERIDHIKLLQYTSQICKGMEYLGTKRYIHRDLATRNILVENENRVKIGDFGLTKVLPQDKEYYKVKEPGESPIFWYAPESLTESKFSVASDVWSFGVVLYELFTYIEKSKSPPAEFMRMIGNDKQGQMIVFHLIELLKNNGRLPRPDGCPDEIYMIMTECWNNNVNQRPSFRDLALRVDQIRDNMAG

CCCC(C)N1CCC(N(Cc2ccccc2NC(=O)CC)C(=O)Nc2cccc(C(F)(F)F)c2)CC1 (stereo not shown)
IC50 (DCN1-like protein 1 PONY domain; inhibitor, TR-FRET; preincubation five hours): 0.931 ± 0.049 µM

Nc1ccnc(-c2ccccc2)c1
IC50 (TMEM175 (Homo sapiens, UniProt Q9BSA9); proton current, inhibitor, whole-cell patch clamp; HEK293T; pH 4.5, no K+): ~30 µM

O=C(O)c1cc(O)c2c(c1)C(=O)c1cccc(O)c1C2=O
viability (HK-2 co-cultured with HepaRG; MTT; 33.33 µM, 48 h; relative to: untreated control): 52.4 ± 3.75%

COCc1nn(Cc2ccc(Cn3ccccc3=O)cc2)cc1C(=O)NCc1cc[nH]n1
IC50 (F11): > 40 µM

Cc1cc(O)c2c(c1)C(=O)c1cccc(O)c1C2=O
viability (HK-2 co-cultured with HepaRG; MTT; 133.33 µM, 48 h; relative to: untreated control): 48.3 ± 18%

Cc1cccc(-c2nc(-c3ccc(C(N)=O)cc3)[nH]c2-c2ccncc2)c1
IC50 (TGFBR1; binding, LanthaScreen kinase binding): 0.54 ± 0.104 µM

CC(C)C[C@H](NC(=O)C[C@H](O)[C@H](CC(C)C)NC(=O)[C@H](Cc1c[nH]cn1)NC(=O)CNC(=O)[C@@H](NC(=O)[C@H](C)NC(=O)[C@H](Cc1c[nH]c2ccccc12)NC(=O)[C@H](CCC(N)=O)NC(=O)[C@@H](Cc1ccccc1)NC(=O)COCCOCCNC(=O)CCC(C(=O)O)N1CCN(CC(=O)O)CCN(CC(=O)O)CCN(CC(=O)O)CC1)C(C)C)C(N)=O (stereo partly shown) [lutetium-177 labelled]
tissue uptake (BALB/c nu/nu mice, brain; intravenous, 500 pmol, 1 h, added: PA 300 µg): 0.02 ± 0.01 %ID/g

CCN(Cc1cnc2nc(N)nc(N)c2n1)c1ccc(C(=O)c2ccccc2)cc1
IC50 (TYMS; inhibitor): > 100 µM

CCc1ccc(Cn2nnc3c4ccc(F)cc4c(=O)[nH]c32)cc1
IC50 (Protein mono-ADP-ribosyltransferase PARP4 (PARP4, Homo sapiens, UniProt Q9UKK3)): > 10 µM

Cn1cc2c(C(=O)O)ccc(NS(=O)(=O)c3ccc(OCC4CCC4)c(Cl)c3)c2n1
IC50 (PDE6A/PDE6B (Bos taurus, UniProt P11541+P23439); antagonist; bovine target): > 200 µM

O=c1nc(SCc2cc(F)cc(C(F)(F)F)c2)nc(SCc2ccc3nc(Cl)ccc3c2)[nH]1
IC50 (DNA topoisomerase 2-alpha (TOP2A, Homo sapiens, UniProt P11388); ATPase activity, inhibitor, competitive ATPase; added: 0.5 mM ATP): 26.1 µM

NC(=O)c1cccc2c1O/C(=C\c1ccc(C(=O)O)s1)C2=O
IC50 (PARP1; inhibitor): 0.02 µM

Cn1cc(-c2ccc(-c3cncc(Cl)c3N3CCC4(CCNC4=O)CC3)cc2)cn1
log2 fold change (COLO 205; gene expression, microarray, item: LSS mRNA; concentration not given, 2 h; relative to: untreated cells): -2.15

Cc1cccc(-c2nc[nH]c2-c2ccncc2)c1
IC50 (TGFBR1; binding, LanthaScreen kinase binding): 2 ± 0.0775 µM

CCN(Cc1cnc2nc(N)nc(N)c2n1)c1ccc(C(=O)N2CCC(C(=O)OC)CC2)cc1
IC50 (TYMS; inhibitor): > 100 µM

COc1ccc2c(c1)CN(C(=O)CCN1CCC(Cc3ccccc3)CC1)CC[S@@+]2[O-]
IC50 (Potassium voltage-gated channel subfamily A member 5 (KCNA5, Homo sapiens, UniProt P22460); IKur current, inhibitor, whole-cell patch clamp; stable cell line): 3.7 µM

Cc1cccc(C)c1-c1nc(-c2ccc(F)cc2)c(-c2ccncc2)[nH]1
IC50 (TGFBR1; binding, LanthaScreen kinase binding): 0.0735 ± 0.0043 µM

O=C(CSc1n[nH]c(-c2ccccc2Cl)n1)c1ccc(O)c(O)c1
IC50 (Protein lin-28 homolog A): 22.4 µM

COc1ccnc(CNC(=O)c2cnn(Cc3ccc(Cn4ccccc4=O)cc3)c2)c1F
IC50 (F11): > 40 µM

NC(=O)c1cccc2c1O/C(=C\c1ccc(C(=O)N3CCN(c4nc5ccccc5[nH]4)CC3)s1)C2=O
IC50 (PARP1; inhibitor): 0.017 µM

COc1ccc(Oc2ccc(CNCc3cnc4nc(N)nc(N)c4n3)cc2)cc1
IC50 (TYMS; inhibitor): > 100 µM

Cc1cc(CN=C(N)NC(N)=S)c(C)cc1CN=C(N)NC(N)=S
IC50 (Protein lin-28 homolog A): 4.2 µM

O=[N+]([O-])c1ccccc1-c1nc(-c2ccc(F)cc2)c(-c2ccncc2)[nH]1
IC50 (TGFBR1; binding, LanthaScreen kinase binding): 0.0534 ± 0.0119 µM

Cn1cnc([N+](=O)[O-])c1SCc1csc2ccccc12
IC50 (Protein lin-28 homolog A): 15.1 µM

Cc1cc(Nc2nc(N[C@@H](C)c3ncc(F)cn3)ncc2Cl)n[nH]1
IC50 (Tyrosine-protein kinase JAK2 (JAK2, Homo sapiens, UniProt O60674); enzyme activity, inhibitor): 0.00126 ± 0.0002 µM

CCCC(C)N1CCC(N(Cc2cccc(NC(=O)CCl)c2)C(=O)Nc2cccc(C(F)(F)F)c2)CC1 (stereo not shown)
IC50 (DCN1-like protein 1 PONY domain; binding, inhibitor, TR-FRET; 24 h, racemic mixture): 0.076 ± 0.029 µM

Cc1cnn(Cc2ccc(Cn3cc(C(=O)NCc4ccc5c(N)nccc5c4)cn3)cc2)c1
IC50 (F11): > 40 µM

O=c1[nH]c(-c2ccccn2)nc2c1CSCC2
IC50 (Protein lin-28 homolog A): 15.5 µM

CC[C@@H]1[C@H](F)C(=O)N[C@@H]1COc1nccc2cc(C(N)=O)c(OC)cc12
IC50 (Mitogen-activated protein kinase kinase kinase 2 (MAP3K2, Homo sapiens, UniProt Q9Y2U5); ATP probe binding, KiNativ profiling, item: Lys1 probe site; THP-1 cell lysate): > 5 µM

c1coc(CNc2ncnc3[nH]cnc23)c1
IC50 (Gelsolin, peptide (GSN, Homo sapiens, UniProt P06396); gelsolin peptide aggregation, inhibitor, ThT fluorescence; 12 h, 37 °C): 19 ± 5 µM

O=c1c(O[C@@H]2O[C@H](CO)[C@@H](O)[C@H](O)[C@H]2O)c(-c2ccc(O)c(O)c2)oc2cc(O)cc(O)c12
IC50 (Protein disulfide-isomerase (P4HB, Homo sapiens, UniProt P07237); reductase activity, inhibitor, fluorogenic BD-SS; purified PDI): 2.7 µM

C#Cc1ccc2ccccc2c1
IC50 (Cytochrome P450 2A13 (Homo sapiens, UniProt Q16696); coumarin 7-hydroxylation; 20 min, pH 7.4, 37 °C, added: coumarin 10 µM): 1.8 µM

COc1cc(C(=O)NCC2(N(C)C)CCCC2)cc(OC)c1OCc1ccccc1
IC50 (glycine transporter 2 (Xenopus tropicalis, UniProt A0A7D9NK84, I281V/L621F/M283I); glycine uptake, inhibitor; HEK293F expressing 3-residue mutant; added: [3H]glycine): 0.0577 µM

NC(=O)c1cccc2c1O/C(=C\c1ccc(C(=O)NCCn3ncc4ccccc4c3=O)s1)C2=O
IC50 (PARP1; inhibitor): 0.64 µM

CCCC(C)N1CCC(N(Cc2ccccc2CNC(=O)CCl)C(=O)Nc2cccc(C(F)(F)F)c2)CC1 (stereo not shown)
IC50 (DCN1-like protein 1 PONY domain; binding, inhibitor, TR-FRET; 24 h, racemic mixture): 0.222 ± 0.087 µM

[Cl-].[Cl-].[Zn+2]
IC50 (Voltage-gated hydrogen channel 1 (HVCN1, Homo sapiens, UniProt Q96D96, E119H); whole-cell voltage clamp; 100 mV, open probability 0.55): 0.61 µM

NC(=O)c1cccnc1
IC50 (Nicotinamide N-methyltransferase (NNMT, Homo sapiens, UniProt P40261); enzyme activity, inhibitor): > 25.1 µM

CCc1ccc(NC(=O)Nc2c[nH]c3ccccc23)cc1
IC50 (TYRO protein tyrosine kinase-binding protein (TYROBP, Homo sapiens, UniProt O43914); split luciferase reporter; human cells; 6 h, treatment 48 h after induction, added: doxycycline induction): 7.2 ± 3.1 µM

CCn1c(-c2nc3cc(C(=O)N4CCC[C@@H](N)C4)cc(OC)c3n2C)cc2cccnc21
IC50 (D(1A) dopamine receptor (DRD1, Homo sapiens, UniProt P21728); antagonist, TR-FRET): > 31.6 µM

CN1CCN(c2ccc(Nc3ncc4cc(C#N)c(=O)n(C5CCCC5)c4n3)cc2)CC1
IC50 (Muscle, skeletal receptor tyrosine-protein kinase (MUSK, Homo sapiens, UniProt O15146)): 2.78 µM

COc1c([C@H]2[C@H](C(=O)Nc3ccnc(C(N)=O)c3)O[C@@](C)(C(F)(F)F)[C@H]2C)ccc(F)c1F
IC50 (GABA-gated chloride channel (human); binding): 13 µM

Fc1ccc(-c2nc(-c3ccc4ccccc4c3F)[nH]c2-c2ccncc2)cc1
IC50 (TGFBR1; binding, LanthaScreen kinase binding): 0.152 ± 0.0074 µM

COC(=O)C1CCN(C(=O)c2ccc(N(Cc3ccccc3)Cc3cnc4nc(N)nc(N)c4n3)cc2)CC1
IC50 (TYMS; inhibitor): > 100 µM

NC(=O)c1cccc2c1O/C(=C\c1ccc(C(=O)NCc3nc4ccccc4[nH]3)s1)C2=O
IC50 (PARP1; inhibitor): 0.12 µM

Nc1nc(N)c2nc(C(=O)NCc3ccccc3)cnc2n1
IC50 (TYMS; inhibitor): > 100 µM

Nc1ncnc2c1ncn2[C@@H]1O[C@H](COP(=O)(O)OP(=O)(O)OP(=O)(O)O)[C@@H](O)[C@H]1O
IC50 (P2Y receptor, rat; radioligand binding): 0.038 µM

Cc1cccc(-c2nc(C#CCCO)[nH]c2-c2ccncc2)c1
IC50 (TGFBR1; binding, LanthaScreen kinase binding): > 5 µM

Nc1nc(N)c2nc(CNc3ccc(C(=O)NCCc4ccccc4)cc3)cnc2n1
IC50 (TYMS; inhibitor): > 100 µM

Fc1ccc(-c2nc(-c3ccccc3Br)[nH]c2-c2ccncc2)cc1
IC50 (TGFBR1; binding, LanthaScreen kinase binding): 0.0819 ± 0.0097 µM

C=CC(=O)Nc1cccc(CN(C(=O)Nc2cccc(C(F)(F)F)c2)C2CCN(C(C)CCC)CC2)c1 (stereo not shown)
IC50 (DCN1-like protein 1 PONY domain; binding, inhibitor, TR-FRET; 24 h, racemic mixture): 0.098 ± 0.04 µM

Fc1ccc(-c2nc[nH]c2-c2ccncc2)cc1
IC50 (TGFBR1; binding, LanthaScreen kinase binding): 1.571 ± 0.014 µM

COc1cc2c(c(OC)c1OC)-c1c(cc(OC)c(OC)c1OC)C[C@H](C)[C@H](C)C2
IC50 (CYP3A, rat; poziotinib metabolism to M1, inhibitor; rat liver microsomes, 0.3 mg/mL; 30 min, added: poziotinib 5 µM): 30.7 µM

For quick reference, copied from above:
Cc1cc(CN=C(N)NC(N)=S)c(C)cc1CN=C(N)NC(N)=S
IC50 (Protein lin-28 homolog A): 4.2 µM

CC(C)C[C@H](NC(=O)C[C@H](O)[C@H](CC(C)C)NC(=O)[C@H](Cc1c[nH]cn1)NC(=O)CNC(=O)[C@@H](NC(=O)[C@H](C)NC(=O)[C@H](Cc1c[nH]c2ccccc12)NC(=O)[C@H](CCC(N)=O)NC(=O)[C@@H](Cc1ccccc1)NC(=O)COCCOCCNC(=O)CCC(C(=O)O)N1CCN(CC(=O)O)CCN(CC(=O)O)CCN(CC(=O)O)CC1)C(C)C)C(N)=O (stereo partly shown) [lutetium-177 labelled]
tissue uptake (BALB/c nu/nu mice, brain; intravenous, 500 pmol, 1 h, added: PA 300 µg): 0.02 ± 0.01 %ID/g

C=CC(=O)Nc1cccc(CN(C(=O)Nc2cccc(C(F)(F)F)c2)C2CCN(C(C)CCC)CC2)c1 (stereo not shown)
IC50 (DCN1-like protein 1 PONY domain; binding, inhibitor, TR-FRET; 24 h, racemic mixture): 0.098 ± 0.04 µM

Nc1nc(N)c2nc(C(=O)NCc3ccccc3)cnc2n1
IC50 (TYMS; inhibitor): > 100 µM

Fc1ccc(-c2nc[nH]c2-c2ccncc2)cc1
IC50 (TGFBR1; binding, LanthaScreen kinase binding): 1.571 ± 0.014 µM

O=C(O)c1cc(O)c2c(c1)C(=O)c1cccc(O)c1C2=O
viability (HK-2 co-cultured with HepaRG; MTT; 33.33 µM, 48 h; relative to: untreated control): 52.4 ± 3.75%

CN1CCN(c2ccc(Nc3ncc4cc(C#N)c(=O)n(C5CCCC5)c4n3)cc2)CC1
IC50 (Muscle, skeletal receptor tyrosine-protein kinase (MUSK, Homo sapiens, UniProt O15146)): 2.78 µM

O=c1[nH]c(-c2ccccn2)nc2c1CSCC2
IC50 (Protein lin-28 homolog A): 15.5 µM

CCc1ccc(Cn2nnc3c4ccc(F)cc4c(=O)[nH]c32)cc1
IC50 (Protein mono-ADP-ribosyltransferase PARP4 (PARP4, Homo sapiens, UniProt Q9UKK3)): > 10 µM
